Experimental data of several laboratories.
Parts stem from different laboratories: compare values within a part only.
UniProt Q86SG6, sequence (whole entry, looked up): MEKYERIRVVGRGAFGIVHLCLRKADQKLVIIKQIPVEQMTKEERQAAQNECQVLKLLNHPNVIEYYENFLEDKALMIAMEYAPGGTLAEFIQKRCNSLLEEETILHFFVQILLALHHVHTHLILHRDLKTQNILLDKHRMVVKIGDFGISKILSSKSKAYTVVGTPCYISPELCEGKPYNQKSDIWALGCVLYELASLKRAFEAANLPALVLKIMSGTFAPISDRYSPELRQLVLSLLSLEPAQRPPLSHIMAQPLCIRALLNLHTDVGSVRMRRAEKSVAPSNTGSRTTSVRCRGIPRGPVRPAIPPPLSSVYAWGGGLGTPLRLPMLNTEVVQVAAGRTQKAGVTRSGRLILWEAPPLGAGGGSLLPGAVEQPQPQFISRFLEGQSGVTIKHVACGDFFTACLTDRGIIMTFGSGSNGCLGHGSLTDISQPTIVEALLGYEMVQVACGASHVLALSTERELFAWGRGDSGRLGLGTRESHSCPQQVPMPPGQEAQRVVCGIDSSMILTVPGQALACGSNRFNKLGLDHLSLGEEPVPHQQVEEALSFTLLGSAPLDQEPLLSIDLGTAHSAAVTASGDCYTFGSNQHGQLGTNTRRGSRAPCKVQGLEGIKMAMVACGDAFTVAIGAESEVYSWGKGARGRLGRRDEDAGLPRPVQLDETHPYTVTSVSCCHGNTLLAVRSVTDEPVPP
UniProt Q92630, sequence (whole entry, looked up): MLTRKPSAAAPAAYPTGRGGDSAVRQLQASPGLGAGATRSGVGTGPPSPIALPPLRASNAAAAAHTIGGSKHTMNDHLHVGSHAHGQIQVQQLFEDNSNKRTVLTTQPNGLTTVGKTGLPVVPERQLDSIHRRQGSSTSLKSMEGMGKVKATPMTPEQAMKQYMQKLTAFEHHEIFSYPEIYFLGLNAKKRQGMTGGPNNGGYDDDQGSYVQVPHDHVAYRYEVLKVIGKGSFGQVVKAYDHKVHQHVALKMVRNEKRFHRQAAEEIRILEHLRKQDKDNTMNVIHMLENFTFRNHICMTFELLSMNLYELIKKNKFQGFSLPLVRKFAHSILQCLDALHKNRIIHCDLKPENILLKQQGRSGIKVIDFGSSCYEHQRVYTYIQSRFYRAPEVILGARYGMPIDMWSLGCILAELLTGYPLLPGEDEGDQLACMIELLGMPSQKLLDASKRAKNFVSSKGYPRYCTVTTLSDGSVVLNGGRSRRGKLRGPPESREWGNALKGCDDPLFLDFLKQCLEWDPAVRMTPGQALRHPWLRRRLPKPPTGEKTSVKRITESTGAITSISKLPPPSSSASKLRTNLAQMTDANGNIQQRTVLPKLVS
UniProt O75676, sequence (whole entry, looked up): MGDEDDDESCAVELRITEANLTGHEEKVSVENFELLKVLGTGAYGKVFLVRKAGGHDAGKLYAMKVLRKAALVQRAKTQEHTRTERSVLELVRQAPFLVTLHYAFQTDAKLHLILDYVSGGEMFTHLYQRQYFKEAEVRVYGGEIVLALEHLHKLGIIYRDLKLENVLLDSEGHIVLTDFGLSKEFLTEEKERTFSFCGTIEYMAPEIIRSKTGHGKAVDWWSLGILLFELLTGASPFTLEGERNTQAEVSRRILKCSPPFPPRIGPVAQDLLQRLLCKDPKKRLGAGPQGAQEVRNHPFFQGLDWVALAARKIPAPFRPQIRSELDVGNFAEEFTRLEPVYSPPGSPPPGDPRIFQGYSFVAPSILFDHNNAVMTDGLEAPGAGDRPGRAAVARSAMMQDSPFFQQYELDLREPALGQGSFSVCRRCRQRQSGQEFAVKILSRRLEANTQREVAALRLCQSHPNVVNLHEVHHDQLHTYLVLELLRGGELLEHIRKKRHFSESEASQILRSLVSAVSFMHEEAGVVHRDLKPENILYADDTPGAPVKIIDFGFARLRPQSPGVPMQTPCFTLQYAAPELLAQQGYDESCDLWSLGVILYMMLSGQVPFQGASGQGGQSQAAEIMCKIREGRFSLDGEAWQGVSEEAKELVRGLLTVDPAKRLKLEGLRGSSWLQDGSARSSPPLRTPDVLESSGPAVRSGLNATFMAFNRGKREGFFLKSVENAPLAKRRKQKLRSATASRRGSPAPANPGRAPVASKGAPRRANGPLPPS
UniProt O00311, sequence (whole entry, looked up): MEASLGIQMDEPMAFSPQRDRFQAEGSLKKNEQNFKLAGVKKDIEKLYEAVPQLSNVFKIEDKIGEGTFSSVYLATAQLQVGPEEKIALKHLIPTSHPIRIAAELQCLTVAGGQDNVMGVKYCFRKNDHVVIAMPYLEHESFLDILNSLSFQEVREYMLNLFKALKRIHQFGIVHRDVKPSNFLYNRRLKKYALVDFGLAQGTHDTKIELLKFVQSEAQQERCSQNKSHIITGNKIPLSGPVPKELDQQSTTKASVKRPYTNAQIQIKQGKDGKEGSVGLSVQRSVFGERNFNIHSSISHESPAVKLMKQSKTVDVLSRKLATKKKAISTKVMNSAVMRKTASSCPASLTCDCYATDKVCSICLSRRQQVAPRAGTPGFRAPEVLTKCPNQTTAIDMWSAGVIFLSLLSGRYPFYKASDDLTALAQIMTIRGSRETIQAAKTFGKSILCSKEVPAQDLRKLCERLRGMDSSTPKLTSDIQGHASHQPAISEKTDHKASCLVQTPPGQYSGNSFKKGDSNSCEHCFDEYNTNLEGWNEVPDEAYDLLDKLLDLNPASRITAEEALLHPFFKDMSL
UniProt Q16566, sequence (whole entry, looked up): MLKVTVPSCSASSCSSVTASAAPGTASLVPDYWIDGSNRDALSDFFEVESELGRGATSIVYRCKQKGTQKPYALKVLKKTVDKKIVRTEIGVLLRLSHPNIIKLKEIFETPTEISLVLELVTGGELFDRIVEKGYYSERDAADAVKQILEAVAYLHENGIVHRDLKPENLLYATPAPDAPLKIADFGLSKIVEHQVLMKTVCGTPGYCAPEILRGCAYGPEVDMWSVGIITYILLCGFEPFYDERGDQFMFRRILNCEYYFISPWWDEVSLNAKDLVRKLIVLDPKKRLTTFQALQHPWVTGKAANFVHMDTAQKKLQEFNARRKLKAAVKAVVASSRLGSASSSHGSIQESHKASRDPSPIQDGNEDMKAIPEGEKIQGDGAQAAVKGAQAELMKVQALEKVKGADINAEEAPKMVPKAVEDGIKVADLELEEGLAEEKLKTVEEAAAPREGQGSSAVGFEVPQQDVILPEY
UniProt Q9UF33, sequence (whole entry, looked up): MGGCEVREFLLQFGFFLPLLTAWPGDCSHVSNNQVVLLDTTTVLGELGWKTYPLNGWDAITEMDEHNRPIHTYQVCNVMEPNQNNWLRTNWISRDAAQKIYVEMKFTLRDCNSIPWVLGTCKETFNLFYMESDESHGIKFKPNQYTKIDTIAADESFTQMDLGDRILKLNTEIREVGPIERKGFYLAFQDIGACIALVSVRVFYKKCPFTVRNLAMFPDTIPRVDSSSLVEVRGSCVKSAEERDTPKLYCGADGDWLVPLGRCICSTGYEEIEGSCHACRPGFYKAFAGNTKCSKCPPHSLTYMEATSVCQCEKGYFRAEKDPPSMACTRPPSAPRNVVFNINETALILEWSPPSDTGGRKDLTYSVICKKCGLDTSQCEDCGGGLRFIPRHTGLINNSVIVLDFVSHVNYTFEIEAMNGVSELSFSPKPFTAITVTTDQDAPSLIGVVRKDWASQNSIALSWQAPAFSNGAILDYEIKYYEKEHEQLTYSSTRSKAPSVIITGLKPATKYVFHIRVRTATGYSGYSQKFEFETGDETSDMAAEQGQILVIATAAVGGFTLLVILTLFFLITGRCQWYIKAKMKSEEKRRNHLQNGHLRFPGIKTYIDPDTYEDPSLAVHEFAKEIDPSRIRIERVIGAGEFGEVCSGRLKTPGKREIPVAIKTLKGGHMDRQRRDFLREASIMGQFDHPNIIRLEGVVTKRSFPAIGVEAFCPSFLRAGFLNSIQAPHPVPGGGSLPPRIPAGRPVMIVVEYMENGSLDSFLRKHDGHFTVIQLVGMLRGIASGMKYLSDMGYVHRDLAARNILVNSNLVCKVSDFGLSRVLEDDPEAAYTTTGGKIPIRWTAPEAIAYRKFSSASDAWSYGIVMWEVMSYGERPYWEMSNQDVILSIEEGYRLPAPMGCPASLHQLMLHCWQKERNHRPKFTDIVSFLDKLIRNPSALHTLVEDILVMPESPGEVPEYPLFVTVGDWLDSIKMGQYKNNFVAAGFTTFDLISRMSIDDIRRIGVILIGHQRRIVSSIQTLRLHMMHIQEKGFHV

Set 1 — SMILES: O=c1nc(-c2ccccn2)sc2ccccc12; method: competition with immobilised ligand; concentration: 1 µM
target | test | remaining binding [%]
DYRK2 (Homo sapiens, UniProt Q92630) | binding | 100
STK16 (Homo sapiens, UniProt O75716) | binding | 83
FRK (Homo sapiens, UniProt P42685) | cell-free assay | 100
LRRK2 (Homo sapiens, UniProt Q5S007) | binding | 97
CAMK4 (Homo sapiens, UniProt Q16566) | binding | 97
Ribosomal protein S6 kinase alpha-4, N-terminal kinase domain (RPS6KA4, Homo sapiens, UniProt O75676) | binding | 100

Set 2 — effect on: enzyme activity; action: inhibitor; concentration: 10 µM
Target: Calcium/calmodulin-dependent protein kinase type II subunit alpha (CAMK2A, Homo sapiens, UniProt Q9UQM7)
UniProt Q9UQM7, sequence (whole entry, looked up): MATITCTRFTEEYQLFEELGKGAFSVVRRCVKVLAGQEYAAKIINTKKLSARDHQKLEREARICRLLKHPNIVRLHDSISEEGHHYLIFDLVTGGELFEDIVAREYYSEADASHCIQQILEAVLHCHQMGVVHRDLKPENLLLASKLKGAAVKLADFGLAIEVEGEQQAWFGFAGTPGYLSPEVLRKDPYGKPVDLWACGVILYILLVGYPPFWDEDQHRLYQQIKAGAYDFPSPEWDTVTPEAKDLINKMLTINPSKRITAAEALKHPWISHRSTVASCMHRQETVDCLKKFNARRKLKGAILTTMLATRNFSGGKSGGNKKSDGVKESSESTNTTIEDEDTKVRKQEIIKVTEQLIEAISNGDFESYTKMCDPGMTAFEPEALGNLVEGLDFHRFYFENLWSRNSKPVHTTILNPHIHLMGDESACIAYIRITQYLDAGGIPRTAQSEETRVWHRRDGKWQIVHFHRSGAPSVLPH
Compound | inhibition [%]
Clc1ccccc1CN1CCc2sccc2C1 | -6
CN(C)CCC=C1c2ccccc2CCc2ccccc21 | 13
CN(C)CC/C=C1\c2ccccc2COc2ccccc21 | -12
Nc1nc(=O)n([C@H]2C[C@H](O)[C@@H](CO)O2)cc1CO | -18
C[C@]12CCC(=O)C=C1CC[C@@H]1[C@@H]2CC[C@@]2(C)[C@H]1CC[C@]2(O)C(=O)CO | 11
OC[C@@H](O)[C@@H](O)[C@@H](O)[C@@H](O)CO | -23
COc1ccccc1C(=O)O | -3

Set 3 — effect on: enzyme activity; concentration: 5 µM
SMILES: O=C(Nc1cnn(-c2csc(C(=O)NC3COC3)c2)c1)Nc1ccccc1Cl
target | test | how to read | remaining activity
EPHA6 (Homo sapiens, UniProt Q9UF33) |  | reference: untreated control | 99%
SRC (Homo sapiens, UniProt P12931) |  | reference: untreated control | 85.5%
Cell division cycle 7-related protein kinase, with DBF4 (CDC7, Homo sapiens, UniProt O00311) |  | reference: untreated control | 109%
MST1R (Homo sapiens, UniProt Q04912) |  | reference: untreated control | 94.2%
PEAK1 (Homo sapiens, UniProt Q9H792) | inhibitor |  | 91.4%
NEK8 (Homo sapiens, UniProt Q86SG6) |  | reference: untreated control | 107%

Set 4 — effect on: enzyme activity; action: inhibitor; concentration: 0.5 µM; reference: control
Target: Serine/threonine-protein kinase Nek6 (NEK6, Homo sapiens, UniProt Q9HC98)
UniProt Q9HC98, sequence (whole entry, looked up): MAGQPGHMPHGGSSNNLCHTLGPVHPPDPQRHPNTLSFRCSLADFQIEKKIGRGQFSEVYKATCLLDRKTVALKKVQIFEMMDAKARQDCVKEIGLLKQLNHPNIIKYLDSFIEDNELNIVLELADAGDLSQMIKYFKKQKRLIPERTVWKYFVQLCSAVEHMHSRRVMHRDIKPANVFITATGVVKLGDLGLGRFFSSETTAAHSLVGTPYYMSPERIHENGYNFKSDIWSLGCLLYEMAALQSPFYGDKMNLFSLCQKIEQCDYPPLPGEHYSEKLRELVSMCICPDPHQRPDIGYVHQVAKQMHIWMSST
SMILES | remaining activity [%]
CC(C)[C@H](CO)Nc1nc(Nc2cc(N)cc(Cl)c2)c2ncn(C(C)C)c2n1 | 111
COc1ccc(CNC(=O)Nc2ncc([N+](=O)[O-])s2)cc1 | 100
COc1ccc(OC)c2c(=S)c3ccccc3[nH]c12 | 101
Cc1cccc(-c2[nH]c(C(C)(C)C)nc2-c2ccc3c(c2)OCO3)n1 | 109
CN(C)c1ccc(C=C2C(=O)Nc3ccccc32)cc1 | 96.9
Oc1ccc(-c2nc(-c3ccncc3)c(-c3ccc(F)cc3)[nH]2)cc1 | 99.4
O=S(=O)(c1cccc2cnccc12)N1CCCNCC1 | 97.6
O=C(CCCc1ccc(-c2ccccc2F)cc1)Nc1ccc(O)cc1 | 99.4
N#CC(C#N)=C(N)/C(C#N)=C/c1ccc(O)cc1 | 97.3
COc1ccc(C(=O)Nc2sc3c(c2C(N)=O)CCCC3)cc1OC | 92.7
COc1cc2ncnc(Nc3ccc(F)c(Cl)c3)c2cc1OCCCN1CCOCC1 | 89.9
OCC(O)CCON=C1C(c2c(O)[nH]c3ccccc23)=Nc2ccccc21 (stereo not shown) | 96.3
O=C(O)c1ccc2c3c1cccc3c(=O)n1c3ccccc3nc21 | 115
O=C1NC(=O)C(c2cn(CCCO)c3ncccc23)=C1c1cnccn1 | 94.2
CO[C@H]1C[C@@H]2CC[C@@H](C)[C@@](O)(O2)C(=O)C(=O)N2CCCC[C@H]2C(=O)O[C@H]([C@H](C)C[C@@H]2CC[C@@H](O)[C@H](OC)C2)CC(=O)[C@H](C)/C=C(\C)[C@@H](O)[C@@H](OC)C(=O)[C@H](C)C[C@H](C)/C=C/C=C/C=C/1C | 97.7

Excerpt of the above (set 2):
Compound | inhibition [%]
CN(C)CC/C=C1\c2ccccc2COc2ccccc21 | -12
Nc1nc(=O)n([C@H]2C[C@H](O)[C@@H](CO)O2)cc1CO | -18
C[C@]12CCC(=O)C=C1CC[C@@H]1[C@@H]2CC[C@@]2(C)[C@H]1CC[C@]2(O)C(=O)CO | 11
